Assay results pooled from the literature.
Parts stem from different laboratories: compare values within a part only. Values joined by “and” are separate records of one study, mostly repeats; a detail may differ.
Sequence of UniProt Q9UK32 (whole entry, looked up): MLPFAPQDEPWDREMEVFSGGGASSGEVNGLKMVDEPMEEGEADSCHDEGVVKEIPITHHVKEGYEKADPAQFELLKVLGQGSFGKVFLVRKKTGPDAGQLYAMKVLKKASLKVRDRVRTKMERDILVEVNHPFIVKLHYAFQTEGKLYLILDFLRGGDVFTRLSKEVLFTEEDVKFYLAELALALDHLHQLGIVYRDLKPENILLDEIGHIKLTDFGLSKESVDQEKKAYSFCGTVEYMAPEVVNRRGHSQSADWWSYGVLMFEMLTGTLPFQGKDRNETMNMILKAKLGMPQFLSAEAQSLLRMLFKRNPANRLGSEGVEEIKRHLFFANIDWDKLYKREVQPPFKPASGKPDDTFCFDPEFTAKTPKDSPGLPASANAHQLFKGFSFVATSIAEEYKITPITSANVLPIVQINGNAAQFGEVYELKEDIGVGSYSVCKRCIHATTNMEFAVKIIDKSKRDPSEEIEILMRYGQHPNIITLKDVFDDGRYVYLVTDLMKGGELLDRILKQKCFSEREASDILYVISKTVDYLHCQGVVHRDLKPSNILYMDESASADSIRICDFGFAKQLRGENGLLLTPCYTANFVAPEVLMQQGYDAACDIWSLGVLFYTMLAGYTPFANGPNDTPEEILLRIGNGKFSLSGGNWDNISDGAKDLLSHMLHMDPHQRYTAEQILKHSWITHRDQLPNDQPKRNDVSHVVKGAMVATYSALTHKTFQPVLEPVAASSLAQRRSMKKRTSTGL
Sequence of UniProt P43403 (whole entry, looked up): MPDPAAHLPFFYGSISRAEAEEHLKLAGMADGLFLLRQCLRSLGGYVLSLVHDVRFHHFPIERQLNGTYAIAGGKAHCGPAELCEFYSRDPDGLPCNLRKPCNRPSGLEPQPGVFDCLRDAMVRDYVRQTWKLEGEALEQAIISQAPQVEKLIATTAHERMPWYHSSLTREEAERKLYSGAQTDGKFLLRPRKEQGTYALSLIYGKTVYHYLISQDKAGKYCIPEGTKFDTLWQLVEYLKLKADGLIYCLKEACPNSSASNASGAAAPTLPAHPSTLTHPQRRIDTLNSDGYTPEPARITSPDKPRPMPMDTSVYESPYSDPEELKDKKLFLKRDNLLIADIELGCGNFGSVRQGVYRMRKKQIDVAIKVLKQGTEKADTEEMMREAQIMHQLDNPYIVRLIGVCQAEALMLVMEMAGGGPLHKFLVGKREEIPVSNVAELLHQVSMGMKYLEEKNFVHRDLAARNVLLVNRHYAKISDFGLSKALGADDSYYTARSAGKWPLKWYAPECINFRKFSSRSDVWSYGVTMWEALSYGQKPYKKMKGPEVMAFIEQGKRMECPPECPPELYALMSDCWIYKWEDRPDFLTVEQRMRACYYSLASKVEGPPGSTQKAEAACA
Sequence of UniProt P10721 (whole entry, looked up): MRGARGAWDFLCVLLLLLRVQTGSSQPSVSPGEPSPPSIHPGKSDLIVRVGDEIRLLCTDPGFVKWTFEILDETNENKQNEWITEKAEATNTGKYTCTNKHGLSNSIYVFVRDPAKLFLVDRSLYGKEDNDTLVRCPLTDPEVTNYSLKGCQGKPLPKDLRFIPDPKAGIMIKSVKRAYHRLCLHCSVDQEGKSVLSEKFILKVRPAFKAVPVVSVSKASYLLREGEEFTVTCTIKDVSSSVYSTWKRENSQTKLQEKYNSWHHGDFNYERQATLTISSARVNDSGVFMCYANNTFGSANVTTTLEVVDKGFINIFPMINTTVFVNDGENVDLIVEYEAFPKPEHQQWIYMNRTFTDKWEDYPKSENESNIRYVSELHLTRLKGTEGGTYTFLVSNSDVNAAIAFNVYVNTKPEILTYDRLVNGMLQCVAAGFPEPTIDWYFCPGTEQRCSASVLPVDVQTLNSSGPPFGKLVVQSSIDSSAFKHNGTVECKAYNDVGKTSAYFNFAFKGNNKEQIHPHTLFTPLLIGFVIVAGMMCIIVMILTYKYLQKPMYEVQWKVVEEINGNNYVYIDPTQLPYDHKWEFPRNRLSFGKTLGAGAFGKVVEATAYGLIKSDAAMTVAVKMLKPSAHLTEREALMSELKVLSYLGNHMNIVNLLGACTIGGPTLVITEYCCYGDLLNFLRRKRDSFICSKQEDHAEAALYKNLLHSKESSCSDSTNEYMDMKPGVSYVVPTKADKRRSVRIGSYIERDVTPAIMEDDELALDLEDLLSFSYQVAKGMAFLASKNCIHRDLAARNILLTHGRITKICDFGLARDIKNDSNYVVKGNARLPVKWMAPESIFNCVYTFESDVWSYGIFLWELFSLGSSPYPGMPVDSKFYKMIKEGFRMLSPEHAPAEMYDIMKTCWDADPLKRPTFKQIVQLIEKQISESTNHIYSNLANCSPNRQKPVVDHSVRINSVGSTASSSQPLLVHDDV
Sequence of UniProt Q8IU85 (whole entry, looked up): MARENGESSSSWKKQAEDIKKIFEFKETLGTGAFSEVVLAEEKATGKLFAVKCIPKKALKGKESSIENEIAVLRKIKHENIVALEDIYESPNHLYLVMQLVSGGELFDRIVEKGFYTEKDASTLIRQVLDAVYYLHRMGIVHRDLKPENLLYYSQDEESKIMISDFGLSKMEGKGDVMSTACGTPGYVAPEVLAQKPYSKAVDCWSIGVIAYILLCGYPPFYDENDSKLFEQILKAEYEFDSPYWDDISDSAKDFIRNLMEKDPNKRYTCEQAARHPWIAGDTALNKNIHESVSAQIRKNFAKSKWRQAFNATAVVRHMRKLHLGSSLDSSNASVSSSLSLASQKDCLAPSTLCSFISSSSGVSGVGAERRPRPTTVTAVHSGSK
Sequence of UniProt P54762 (whole entry, looked up): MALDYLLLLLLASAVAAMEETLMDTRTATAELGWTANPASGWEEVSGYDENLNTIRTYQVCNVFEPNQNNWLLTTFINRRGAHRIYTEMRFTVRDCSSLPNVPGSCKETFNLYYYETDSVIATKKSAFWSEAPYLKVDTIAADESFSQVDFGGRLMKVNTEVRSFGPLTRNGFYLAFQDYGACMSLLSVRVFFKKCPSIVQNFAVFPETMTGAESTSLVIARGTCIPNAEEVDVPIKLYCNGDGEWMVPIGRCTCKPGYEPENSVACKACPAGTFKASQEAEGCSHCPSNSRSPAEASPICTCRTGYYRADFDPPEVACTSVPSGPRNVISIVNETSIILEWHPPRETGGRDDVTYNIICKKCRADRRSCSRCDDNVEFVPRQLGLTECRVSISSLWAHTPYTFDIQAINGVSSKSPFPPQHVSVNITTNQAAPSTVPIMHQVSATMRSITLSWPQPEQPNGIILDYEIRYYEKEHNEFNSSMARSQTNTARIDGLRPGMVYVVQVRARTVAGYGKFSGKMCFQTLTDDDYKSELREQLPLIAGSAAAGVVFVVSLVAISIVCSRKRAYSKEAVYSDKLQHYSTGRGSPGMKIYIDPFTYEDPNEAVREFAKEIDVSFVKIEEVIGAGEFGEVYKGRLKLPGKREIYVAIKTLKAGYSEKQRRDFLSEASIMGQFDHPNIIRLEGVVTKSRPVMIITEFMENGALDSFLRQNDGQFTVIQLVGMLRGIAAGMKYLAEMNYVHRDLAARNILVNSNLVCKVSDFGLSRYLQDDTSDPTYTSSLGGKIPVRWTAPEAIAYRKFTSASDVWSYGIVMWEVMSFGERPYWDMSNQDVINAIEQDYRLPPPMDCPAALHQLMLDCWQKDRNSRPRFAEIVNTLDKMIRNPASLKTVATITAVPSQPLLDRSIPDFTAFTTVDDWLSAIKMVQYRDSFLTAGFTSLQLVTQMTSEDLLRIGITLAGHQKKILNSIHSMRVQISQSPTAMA
Sequence of UniProt Q8NI60 (whole entry, looked up): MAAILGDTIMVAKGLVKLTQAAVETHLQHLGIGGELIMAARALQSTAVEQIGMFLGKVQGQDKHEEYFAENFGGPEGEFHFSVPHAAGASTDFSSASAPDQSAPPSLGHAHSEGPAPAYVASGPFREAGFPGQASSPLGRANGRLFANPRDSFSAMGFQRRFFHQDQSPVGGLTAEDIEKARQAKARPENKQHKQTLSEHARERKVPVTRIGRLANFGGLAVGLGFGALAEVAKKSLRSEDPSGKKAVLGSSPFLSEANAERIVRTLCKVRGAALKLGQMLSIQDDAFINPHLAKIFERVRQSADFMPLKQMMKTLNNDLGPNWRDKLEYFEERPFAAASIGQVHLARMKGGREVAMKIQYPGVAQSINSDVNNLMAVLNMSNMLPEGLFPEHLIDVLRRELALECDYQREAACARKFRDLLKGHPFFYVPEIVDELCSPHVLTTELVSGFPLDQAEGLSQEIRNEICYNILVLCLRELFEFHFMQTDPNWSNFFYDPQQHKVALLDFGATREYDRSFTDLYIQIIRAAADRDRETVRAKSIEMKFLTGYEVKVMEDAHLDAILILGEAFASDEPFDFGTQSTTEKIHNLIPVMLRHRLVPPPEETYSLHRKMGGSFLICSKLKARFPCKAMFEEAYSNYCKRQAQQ
Sequence of UniProt P51451 (whole entry, looked up): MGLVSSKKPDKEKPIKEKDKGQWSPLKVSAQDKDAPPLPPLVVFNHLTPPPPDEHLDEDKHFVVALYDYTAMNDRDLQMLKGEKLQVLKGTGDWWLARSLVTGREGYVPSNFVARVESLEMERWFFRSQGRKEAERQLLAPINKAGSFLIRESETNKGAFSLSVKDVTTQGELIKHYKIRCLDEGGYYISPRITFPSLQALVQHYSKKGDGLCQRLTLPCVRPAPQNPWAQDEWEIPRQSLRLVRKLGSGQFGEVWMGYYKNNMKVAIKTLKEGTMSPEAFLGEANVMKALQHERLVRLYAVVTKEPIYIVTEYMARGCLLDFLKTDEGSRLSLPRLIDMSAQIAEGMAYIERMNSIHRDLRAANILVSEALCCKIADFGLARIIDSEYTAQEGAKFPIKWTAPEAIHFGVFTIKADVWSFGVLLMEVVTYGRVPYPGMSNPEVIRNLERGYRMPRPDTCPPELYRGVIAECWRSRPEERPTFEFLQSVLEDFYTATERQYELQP

Series 1
SMILES: CCOCCn1cc(C(=O)Nc2ccc(-n3nc(-c4cccnc4)cc3C(F)(F)F)cn2)ccc1=O
Concentration: 1 µM
| target | assay | remaining binding [%] |
| --- | --- | --- |
| CDKL3 (Homo sapiens, UniProt Q8IVW4) | cell-free assay, competition with immobilised ligand | 84 |
| STK32B (Homo sapiens, UniProt Q9NY57) | cell-free assay, competition with immobilised ligand | 100 |
| MAP3K20 (Homo sapiens, UniProt Q9NYL2) | cell-free assay, competition with immobilised ligand | 73 |
| MYLK3 (Homo sapiens, UniProt Q32MK0) | cell-free assay, competition with immobilised ligand | 97 |
| Mast/stem cell growth factor receptor Kit, autoinhibited (KIT, Homo sapiens, UniProt P10721) | cell-free assay, competition with immobilised ligand | 89 |
| CDK18 (Homo sapiens, UniProt Q07002) | cell-free assay, competition with immobilised ligand | 98 |
| CDC42BPG (Homo sapiens, UniProt Q6DT37) | competition binding | 91 |
| PIK3C2G (Homo sapiens, UniProt O75747) | cell-free assay, competition with immobilised ligand | 85 |
| Ribosomal protein S6 kinase alpha-6, N-terminal kinase domain (RPS6KA6, Homo sapiens, UniProt Q9UK32) | cell-free assay, competition with immobilised ligand | 81 |
| CAMK1G (Homo sapiens, UniProt Q96NX5) | cell-free assay, competition with immobilised ligand | 100 |
| COQ8A (Homo sapiens, UniProt Q8NI60) | cell-free assay, competition with immobilised ligand | 90 |
| SLK (Homo sapiens, UniProt Q9H2G2) | cell-free assay, competition with immobilised ligand | 100 |
| ZAP70 (Homo sapiens, UniProt P43403) | cell-free assay, competition with immobilised ligand | 67 |
| CAMK1D (Homo sapiens, UniProt Q8IU85) | cell-free assay, competition with immobilised ligand | 100 |
| CAMK2G (Homo sapiens, UniProt Q13555) | cell-free assay, competition with immobilised ligand | 100 |

Series 2
Cell line: A-375
Concentration: 100 µM
Time: 18 h
| Compound | viability |
| --- | --- |
| CC1(C)O[C@@H]2C[C@H]3[C@@H]4C[C@H](F)C5=CC(=O)C=C[C@]5(C)[C@H]4[C@@H](O)C[C@]3(C)[C@]2(C(=O)CO)O1 | 65.9% |
| C[C@H]1C[C@H]2[C@@H]3CCC4=CC(=O)C=C[C@]4(C)[C@@]3(F)[C@@H](O)C[C@]2(C)[C@@]1(O)C(=O)CO | 88.9% |
| CC(=O)O[C@H]1C(=O)[C@@]2(C)[C@H]([C@H](OC(=O)c3ccccc3)[C@]3(O)C[C@H](OC(=O)[C@H](O)[C@@H](NC(=O)c4ccccc4)c4ccccc4)C(C)=C1C3(C)C)[C@]1(OC(C)=O)CO[C@@H]1C[C@@H]2O | 64.9% |
| Nc1nc2[nH]cc(CCc3ccc(C(=O)N[C@@H](CCC(=O)O)C(=O)O)cc3)c2c(=O)[nH]1 | 81.9% and 99.6% |

Series 3
Structure (SMILES): COc1cc2c(N3CCN(C(=O)Nc4ccc(OC(C)C)cc4)CC3)ncnc2cc1OCCCN1CCCCC1
Observed: enzyme activity
Action: inhibitor
Concentration: 0.5 µM
Reference: control
| target | remaining activity [%] |
| --- | --- |
| WNK3 (Homo sapiens, UniProt Q9BYP7) | 102 |
| PHKG1 (Homo sapiens, UniProt Q16816) | 92.6 |
| PDPK1 (Homo sapiens, UniProt O15530) | 96.8 |
| Cyclin-dependent kinase 6, with cyclin D3 (CDK6, Homo sapiens, UniProt Q00534) | 92.7 |
| RPS6KA6 (Homo sapiens, UniProt Q9UK32) | 106 |
| EPHB1 (Homo sapiens, UniProt P54762) | 96.6 |
| BLK (Homo sapiens, UniProt P51451) | 100 |
| Cyclin-dependent kinase 1, with cyclin B (CDK1, Homo sapiens, UniProt P06493) | 97.1 |
| PRKACG (Homo sapiens, UniProt P22612) | 108 |

Series 4
Host: mouse
Sample: microsomes or S9
Concentration: 2 µM
Time: 0.5 h
| Compound | remaining compound |
| --- | --- |
| Cn1c(=O)c(-c2ccc3ccccc3n2)cc2cc(Br)ccc21 | 0.338% |
| CC(C)(C)C(=O)N1CC(C(=O)NC2CCCC2)C2(CCOCC2)C1 (centres unmarked) | 54.7% |
| CCOc1ccc(C(=O)N2CCc3cc(OC)c(OC)cc3C2CC2CC3c4cc(OC)c(OC)cc4CCN3CC2CC)cc1 (centres unmarked) | 6.18% |
| CCCNC1=Nc2ccccc2S(=O)(=O)N1CCC | 3.75% |
| CCN(CC)Cc1ccc2c(c1)CN(C(=O)Nc1ccc(OC)cc1)CCO2 | 2.12% |
| Cc1cccc(S(=O)(=O)Nc2nc3ncc(Br)nc3s2)c1 | 96.2% |
| O=C1Nc2c(c3cc(O)ccc3n2Cc2ccccc2)CNC1Cc1ccccc1 (centres unmarked) | 0% |

For quick reference, copied from above (series 4):
| Compound | remaining compound |
| --- | --- |
| Cc1cccc(S(=O)(=O)Nc2nc3ncc(Br)nc3s2)c1 | 96.2% |
| CCN(CC)Cc1ccc2c(c1)CN(C(=O)Nc1ccc(OC)cc1)CCO2 | 2.12% |
| Cn1c(=O)c(-c2ccc3ccccc3n2)cc2cc(Br)ccc21 | 0.338% |
